# Measured values collected from several papers.
# Each numbered part is a random draw from the data of one study; scales do not carry over between parts. Substitutions count along the parent as printed.

# Series 1
# Target: JUNB, bZIP domain (human)
# Method: DHFR protein complementation
# Matrix: yeast
# Setting: single substitutions, most at no-binding floor
# Relative to: wild-type JUN-FOS pair
# Reading: higher = stronger binding
# Starting sequence: JUN, bZIP domain (human); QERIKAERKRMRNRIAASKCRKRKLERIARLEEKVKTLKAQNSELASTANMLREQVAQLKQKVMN; partner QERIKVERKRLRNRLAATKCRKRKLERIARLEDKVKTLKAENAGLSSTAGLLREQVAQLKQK
Variant,binding fitness [natural log]
I28P,-1.5
T37L,-0.941
L52R,-1.49
S47L,-1.05
S43W,-1.31
R30H,-1.09
A46L,-0.971
T48F,-1.39
E32S,-1.4
E44N,-1.34
E44M,-1.19
A49P,-1.45
T37H,-0.936
A46R,-0.716
E44A,-1.2
I28A,-1.42
N42K,-1.4
A49R,-1.37
E54C,-1.37
A40L,-1.21
I28S,-1.39
L45C,-1.49
E44L,-1.21

# Series 2
# Target: CCNA1, cyclin fold, Cln2 fusion (human)
# Method: yeast growth competition, sequencing
# Matrix: yeast
# Setting: weak parent motif
# Relative to: not given
# Reading: higher = stronger binding
# Starting sequence: SLBP docking peptide (human); ARYKRKLLINDFG
Variant,normalised enrichment score
ARYKRKLLINSFG [D11S],0.179
ARYKRKLLRNDFG [I9R],0.364
ARYKRKLDINDFG [L8D],0.0673
ARYKRRLLINDFG [K6R],0.23
ARYKRKLEINDFG [L8E],0.5
ARYKRKLLIADFG [N10A],0.327
ARYKRCLLINDFG [K6C],0.689
AEYKRKLLINDFG [R2E],0.462
ARYKRKLLICDFG [N10C],0.193
ARYKRKLLINCFG [D11C],0.029
ARHKRKLLINDFG [Y3H],0.261
AREKRKLLINDFG [Y3E],0.378
ARYKPKLLINDFG [R5P],0.177
ARYKRKLLINMFG [D11M],0.362
ARYYRKLLINDFG [K4Y],0.32
ARYKRKLLPNDFG [I9P],0.505
ARYKRKLLINRFG [D11R],0.0402

# Series 3
# Target: RNA binding protein fox-1 homolog 2, RRM domain, GST-SBP tag (RBFOX2, Homo sapiens, UniProt O43251-10, residues 100-194)
# Method: RNA Bind-n-Seq
# Form: RNA
# Matrix: in vitro
# Concentration: 365 nM
# Setting: natural RNA segment, single round, ends assumed
# Relative to: no-protein control
# Reading: higher = stronger binding
# Constant ends, left off below: GGGAGUUCUACAGUCCGACGAUC … UGGAAUUCUCGGGUGCCAA
# Construct (chain): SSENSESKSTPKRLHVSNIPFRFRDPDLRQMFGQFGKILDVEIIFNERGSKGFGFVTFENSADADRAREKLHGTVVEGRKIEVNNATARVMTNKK
Sequence,RBNS enrichment (R)
GCUCUAUCCCAGUCGCCCAUUAGCUUGAUUCAAACAAAGCCCCAGCAGGCCUUUGCGUUUUUAUCCUUCAUAACCUUCAUCUUAAUUUGAACUUGUAGCUUGGACUUUAA,0.588
ACCUGUCCUGGGAUGGAGUGUCAGCAUCCACCCCUUGGUUGUCAUCGAGGCCGCCCUCCCAGUCCUGGGUGAAGAUAUUUGGGCCACCAGGGCUCCCUUGGCCCCUUCAC,0.737
CUGUUGAGGUCCUGCCUUGUGCUUUCCUAGUGGAAGCCGUCCUUUGCCCCCGUUGAUGACUUGAGCCCUUGCCAAACAAACACCGAUGAGUGAAGUGGCUGCAACUUGGC,0.356
AGACAGGAAGGGAAAAGCAAAUUUCUAAUUCACCAGCAAUAAAAAUUGGAGGAGGCUUGGCCCUCAGCCCUUAUAUCUCUCUCUUUUUCACUCUCUUCCUCCCACCCCCA,0.578
UUUUUUUCAAUACUGUAUAAAAAUAGUAUUCUGAUUACCUCCCCCUCAAUAAAAAAAAAGUCCAGAUAAUUGCUUUUGAUAUUGAUGGAAAAACUACAAAACAGACACAA,0.493
AUUAACAUCUUAUGGUCUGAAAAUGUGGGUUUUUAUUUGACACGUUUAAAUAAAAUGUUUCUAACUAAUGUUUUGAUUUUUGUGUUCAAUAUUAAUACUUUUCAAUUGGG,0.538
GAGAUCAGUCUAUCACCCAGGCUGGAGUGCAGUGGUGACAUCAUAGCUCACUGUAACUUCUCCCAUACUCUACCAAUCCUCCUGCCUCAGCAUCCAGACUAGCUGUGAUU,2.63
ACCAUCUUGGCCAGGCUGGUCUUGAAUUCCUGACCUCAGGUGAUCCACCCACCUUGGCCUCCCAAAGUGCUAGUAUUAUGGGCGUGAACCACCAUGCCCAGCCGAAAAGC,2.21

# Series 4
# Target: Hepatocyte nuclear factor 3-alpha (Foxa1, Mus musculus, UniProt P35582, residues 1-468, full length assumed)
# Method: EMSA with sequencing
# Form: double-stranded DNA, one strand shown
# Matrix: in vitro
# Concentration: 10 and 20 nM
# Setting: whole designed probe, mean of two concentrations, ends assumed
# Relative to: negative control set to 0
# Reading: higher = stronger binding
# Constant ends, left off below: GTGAGCGGTGCCCATTGATGGGGAAC … TTTCACTGGGATCGTGGGGAC
# Construct (chain): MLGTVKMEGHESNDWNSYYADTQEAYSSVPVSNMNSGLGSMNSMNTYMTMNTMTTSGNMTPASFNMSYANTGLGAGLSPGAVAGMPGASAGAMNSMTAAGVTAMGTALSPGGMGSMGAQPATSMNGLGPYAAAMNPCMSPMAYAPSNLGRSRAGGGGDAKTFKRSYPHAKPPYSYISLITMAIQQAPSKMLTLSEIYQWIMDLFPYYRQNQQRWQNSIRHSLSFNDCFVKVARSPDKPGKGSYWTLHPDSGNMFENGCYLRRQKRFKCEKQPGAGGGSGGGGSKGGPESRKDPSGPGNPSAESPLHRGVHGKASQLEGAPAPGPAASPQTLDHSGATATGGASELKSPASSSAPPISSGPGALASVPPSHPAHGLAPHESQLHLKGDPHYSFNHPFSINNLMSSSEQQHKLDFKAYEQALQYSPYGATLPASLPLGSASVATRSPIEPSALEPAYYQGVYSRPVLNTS
Sequence,normalised bound fraction
GGCAATATAATTATTTACTGGGTGCGTGGCTCACGCCTGTAATCCCAGCATTTTGGGAGGCCTAATTTGTTAAAATGACTAGATCTAAGAAATGTAATCTAAGCCAGTAACTTTCCTCTGTAGTAACAATAGCCGGTTGAAAATGAAAACTACACATTTTCATTCTTTCAGTGGTTCTCTTAAACTTTAGCAT,-0.0277 ratio
ATCTTCCCCCTCTTCCTTGCCCCACCAGCTCACCTTCCCGGGTTATTTGCACAAAGGAAAATAAATAAAGCCGGCATTCGTTAACCCTCTTCTGGCGCAAACTGCTGTTTGCTCTGCATGAATCATGGTCCTTACGCGACGCCAGGCTCCGGGAGAGCAAAGCACCGTGTCAGGCGCATGATCCGGGCTCGCC,0.371 ratio
CCCTCATCCTGGGTGTCGGGGTGGGAGGTGTTCTCATCATGAATGGGAGGCGTACCCAGATCCAGCTCTGCCTTTTTTTAACCAAACCAGAGTGTAAACAAATGGCTGTTAATCGACATAGTGACTCACCAGCAAGATATGATACATGCCAGGAGAGAAAAAGAAAGTGCTGATGGAAAAATAATCTCATTAG,0.368 ratio
CAATGGGGTAGGTCAGCCCCAGTGAACTCTCAAATGACCACTGAAGGAGGAAGTGAGTGCAGAGTGTGATACCACTCACATCCCAGCCCAGACTGTTTGCTCAGTTCTTCCTGCACTGGGAGGAGTGTTGCAATTCGAGATAACACCCCTTCTCATGGCTTCAGGCATCACCTATCTCCTCTAGGCTGCGCTC,0.177 ratio
AATGGGCTCCTGGGAACAGAAGCAACAGCTGCGTGGAGGGTGAGGACAAGCTGACATTTAGAAATATTCTGGTCAAGAGTTCCAATTGGTGTTAGATTGCTGAGGGCGCTGGTGTGAAGCCCGGCTGAGTCATGAGGTTGGACAGACAGTCCAGGAGCGGCTGAGTAAGGCAAGGTGGGGAAGGGCACATGCT,-0.0757 ratio

# Excerpt of the above (series 3):
Sequence,RBNS enrichment (R)
GCUCUAUCCCAGUCGCCCAUUAGCUUGAUUCAAACAAAGCCCCAGCAGGCCUUUGCGUUUUUAUCCUUCAUAACCUUCAUCUUAAUUUGAACUUGUAGCUUGGACUUUAA,0.588
ACCUGUCCUGGGAUGGAGUGUCAGCAUCCACCCCUUGGUUGUCAUCGAGGCCGCCCUCCCAGUCCUGGGUGAAGAUAUUUGGGCCACCAGGGCUCCCUUGGCCCCUUCAC,0.737
AGACAGGAAGGGAAAAGCAAAUUUCUAAUUCACCAGCAAUAAAAAUUGGAGGAGGCUUGGCCCUCAGCCCUUAUAUCUCUCUCUUUUUCACUCUCUUCCUCCCACCCCCA,0.578
AUUAACAUCUUAUGGUCUGAAAAUGUGGGUUUUUAUUUGACACGUUUAAAUAAAAUGUUUCUAACUAAUGUUUUGAUUUUUGUGUUCAAUAUUAAUACUUUUCAAUUGGG,0.538
ACCAUCUUGGCCAGGCUGGUCUUGAAUUCCUGACCUCAGGUGAUCCACCCACCUUGGCCUCCCAAAGUGCUAGUAUUAUGGGCGUGAACCACCAUGCCCAGCCGAAAAGC,2.21
GAGAUCAGUCUAUCACCCAGGCUGGAGUGCAGUGGUGACAUCAUAGCUCACUGUAACUUCUCCCAUACUCUACCAAUCCUCCUGCCUCAGCAUCCAGACUAGCUGUGAUU,2.63
CUGUUGAGGUCCUGCCUUGUGCUUUCCUAGUGGAAGCCGUCCUUUGCCCCCGUUGAUGACUUGAGCCCUUGCCAAACAAACACCGAUGAGUGAAGUGGCUGCAACUUGGC,0.356
